Assay results collected from several papers.
Numbered parts are unrelated; each lists some results of a single study.

Block 1
Target: RNA binding protein fox-1 homolog 2, RRM domain, GST-SBP tag (RBFOX2, Homo sapiens, UniProt O43251-10, residues 100-194)
Technique: RNA Bind-n-Seq
Molecule type: RNA
Matrix: in vitro
Tested at: 365 nM
Notes: natural RNA segment, single round, ends assumed
Relative to: no-protein control
Direction: higher = stronger binding
Quantity: RBNS enrichment (R)
All sequences stand within: GGGAGUUCUACAGUCCGACGAUC … UGGAAUUCUCGGGUGCCAA
Target sequence (chain): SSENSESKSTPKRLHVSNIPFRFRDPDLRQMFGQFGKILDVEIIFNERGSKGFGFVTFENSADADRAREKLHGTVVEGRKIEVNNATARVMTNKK
Oligonucleotide = UCAAACAGCAUCUUGCUCAGUUCUGUGAACAGAAGGCUUUGUUACUGAAGGAGGUGGAAGAGGAGUUUAGGGUGAAAAGGAGGAAGGGAUGGACAGACCCAGGUGAGGAG; value = 1.08
Oligonucleotide = CAAGAAGUUGAAACAGUUAGUUAUGUAGUUGAAGCAAUUUGUGUGCAAAGCCUACAUCUAAACACUUGAGUGAAUAAUCAUUAACUGCUCAGUACCAGACGUGGCAAAUC; value = 0.405
Oligonucleotide = CCGUAUAGAUUCAUCGUGUAGUUCUUCCCAAUAACAAUUACCCAUAUCAUUGAUGUAAAACCCUUGGACUUAGGGGGCAUGAGGAUUUAAUAUGCCUGCGGGGUAACGAU; value = 5.82
Oligonucleotide = ACUAAUUCUCAAAUGGCUCAAGAACAUUAGAAUUUAAGUACCUUUUAGAGUAAUUAUUUUAAGCAAAUAGCCUGGACGUAAGAGAUUCUCAUGCCAGCAUGCUUUCAUUU; value = 2.27
Oligonucleotide = GAGUGUUUACACUGGUUGAUGCUUACACAGCCUGAACUCAGUGCCUCAAACUCCUCUGUGACCAGUUUUGUCUCCAAGCACAUAACUCAUUCUCUCUAAUCUGAUGUCUC; value = 0.362
Oligonucleotide = AUAGCUCUGUAAAACUUGUCCUGUGAGCGAGGCAGGUGCUAUCUGAGAGAGGGAUCUUGCAGCUGUCAUUUCUGGUCUUGUAGCCUUCAUCAGAGGCUGUUUUCCAUGAU; value = 0.518
Oligonucleotide = AAAUUAUGUUCUACUAUGCUCAGGCCCAAAGGCAAUGUGGGGGCCAAAGGGCAACUGGCCUUCUGACCCACUAGAGCCUUGCAAAGAGUUGGCAGUCAGGGGGGUGUCAU; value = 0.33
Oligonucleotide = AGCUAGAACUCAGGGCGCUGAAUACUAAGCAAGCAUUCUUCCGGGAGCCAUAUUCGCAGUCUUCGUUUGUCAGUCAGCUGGGUGACCUUGAAUAAGCUGCUGCUUACCCC; value = 0.25
Oligonucleotide = AGUAUUUACACUGGUUUGAUGUUUACAUUGCUCUAACUCGGUGCCUCAGAUACCUCUGUGACCAAAUUUGUCUCCAACCACAUAGCUCAUUUCCUAUAAUGUUAUAUCAU; value = 0.283
Oligonucleotide = AGAGACAGGGUUUCACCAUGUUAGCCGGGAUGGUCUUGAUCUCCUGACCUCAUGAUCCACCCACCUCAGCCUCCCAAAGUGUUGGGAUUACAGGCGUGAGCCACUGCGCC; value = 0.276
Oligonucleotide = ACAGAAAGUUGGAUUCCUGGGAUGUUUGCACAUCAACUGCUCAACUGUGGAUUGUUUUUUACUUUUCCUUUUAAACCGGUUCGUAUAUAUUUUUCUUCGCUGUUACGAAU; value = 1.01
Oligonucleotide = UGGAGAAGCCCCCAGGAGGAGGGCAACUAAGUGUCAUUAUACCCAGUGUCUGGCUCCCUGAUAGGAGGGAGGUCCCAGGGUAGGAGCGGGCUGGCAGGCGCUGACUGCCU; value = 0.734

Block 2
Target: Histone acetyltransferase KAT6A, winged helix 1, GST fusion (KAT6A, Homo sapiens, UniProt Q92794, residues 1-85)
Technique: protein binding microarray
Molecule type: double-stranded DNA, one strand shown
Matrix: in vitro
Tested at: not given
Notes: 8-mer, flanks averaged, mean of 2 arrays, mostly near background
Relative to: not given
Direction: higher = stronger binding
Quantity: E-score
Residues (chain): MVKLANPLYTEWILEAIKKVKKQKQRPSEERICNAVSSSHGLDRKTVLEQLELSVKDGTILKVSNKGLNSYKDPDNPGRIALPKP
Oligonucleotide = ACTCAATC; value = -0.0769
Oligonucleotide = ACGGGAAA; value = 0.225
Oligonucleotide = AGCGCAAC; value = 0.231
Oligonucleotide = AACTTTAC; value = -0.143
Oligonucleotide = ATACCAAA; value = 0.0486
Oligonucleotide = CCTGGCGA; value = 0.171
Oligonucleotide = CATCTCCA; value = -0.168
Oligonucleotide = ACAGCTGT; value = -0.172
Oligonucleotide = TCCCAGAA; value = -0.153
Oligonucleotide = ATAATACC; value = -0.0382
Oligonucleotide = TACCTATA; value = -0.2
Oligonucleotide = ATAGATTA; value = -0.158
Oligonucleotide = AGCACCTA; value = -0.156
Oligonucleotide = TGTAATAA; value = -0.0375
Oligonucleotide = ATGTAGCG; value = 0.163
Oligonucleotide = CTCCAACA; value = -0.238
Oligonucleotide = ATAAATCG; value = -0.0167
Oligonucleotide = CTTGGCTA; value = -0.272
Oligonucleotide = CTCTCCGC; value = 0.123
Oligonucleotide = CGCGCTCC; value = 0.396
Oligonucleotide = CAAGGGAA; value = -0.191
Oligonucleotide = CAGGTTTA; value = -0.135
Oligonucleotide = CGACTGAA; value = 0.0818
Oligonucleotide = CCAATGTC; value = -0.128
Oligonucleotide = CTGATACC; value = -0.116

Block 3
Target: RING finger protein unkempt homolog, zinc fingers 1-6, GST-SBP tag (UNK, Homo sapiens, UniProt Q9C0B0, residues 30-357)
Sequence of UniProt Q9C0B0 (30-357, looked up): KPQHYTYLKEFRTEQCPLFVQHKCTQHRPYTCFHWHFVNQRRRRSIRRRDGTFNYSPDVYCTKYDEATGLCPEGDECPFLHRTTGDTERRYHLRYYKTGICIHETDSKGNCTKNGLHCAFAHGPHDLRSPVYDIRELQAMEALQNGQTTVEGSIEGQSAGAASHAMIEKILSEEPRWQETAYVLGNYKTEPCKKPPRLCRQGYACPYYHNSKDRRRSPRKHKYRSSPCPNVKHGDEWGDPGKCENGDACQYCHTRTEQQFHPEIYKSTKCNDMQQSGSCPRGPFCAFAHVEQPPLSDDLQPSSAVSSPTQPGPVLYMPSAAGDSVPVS
Technique: RNA Bind-n-Seq
Molecule type: RNA
Matrix: in vitro
Tested at: not given
Notes: RNA with constant flanks, human-mouse chimeric sites, ends assumed
Relative to: input RNA pool
Direction: higher = stronger binding
Quantity: bound/input enrichment
All sequences stand within: GGGAGUUCUACAGUCCGACGAUC … CAACAGAGGAUUGAGCAUCA
Oligonucleotide = UAUAUCACCAAUGUCCUACAAAAUCCUGACUUGGCUCUGAGAAUGGCUGUACGUAAUAACUUAGCUGGUGCUGAAGAACUCUUUGCCCGGAAAUUUAAUGCUCUCUUUGCCCAGGGAAAC; value = 0.347 ratio
Oligonucleotide = GAAUCCUACUCAGGCGGAUUUUGCAACACCAAGCUCAAGUAGCAAUUAUCUUAGUCACAGUAGGGUAGCUUUAGGGCUCUGUGGCCAGGGUUUUAUUCACAUGCAGGUUUGGAAAAUGUA; value = 0.516 ratio
Oligonucleotide = AGAUUCCCCCUCCUGAGACCUCCUCCGAAAUUGGCAUCUCUUACAGAUGCCUCAUCCCCUGUUAGCGUUUUAGUUUGGACCACACAACCUUGGACAAUUCCCGCCAACCAGGCAAUUUGC; value = 1.27 ratio
Oligonucleotide = UAAGUCCUGUGCCAGCAAUUUAUCCCAAAAGUUUUAAAUUCUGGACCAAUAGUGUUUGUUUCCUGAUUAUUGUAUCCAAUACUUUGCCUAGUAUGUAACUCACUCUUCUGGAUAAAUAAA; value = 4.83 ratio
Oligonucleotide = UGGCGCCUGCGCUCCCCACUCGUGUUUUUAAGUGUAUAAGAUGUAUAUACAUGUAUUUACAAUUGAGCUUUUGUUACAUAAUGCUGAAAUGCUACUGGAGAUUAUGAAAAAAUGUUAAAU; value = 0.211 ratio
Oligonucleotide = ACAGUUAUAUUGUUGAGUUUCAUUUUCAUAUAUUCUUGUAGUGUCUGCUUGCCUGUGACUUCUGGUAAAAUAAAAUAAGCCUUUGAAUUAGCAUGCUAUUUAACAUUAACAUUUUCUAAA; value = 4.78 ratio
Oligonucleotide = UUGAAAAACACAGAUAUCAAAGUUGUUGACUUUGGAAGUGCAACGUAUGAUGAUGAACAUCACAGUACUUUGGUGUCUACCCGGCACUACAGAGCUCCAGAGGUCAUUUUGGCUUUAGGU; value = 0.35 ratio
Oligonucleotide = GUGACUGGUGUUAAGAUUUCCCCUCAGCAAAGAAGUGCAGUAGUCACCAUAAUUCCAUCUGUGGUGAGUGCCAGUCAGAUUGUGGAGCUGGUUCCAGACCUCAGUUUAGAUACUGGGACU; value = 0.2 ratio
Oligonucleotide = AAAGCCCAAGUAUUUUGAAAAAACUCGAACAGAUUUGUCAAGGGUAACCAGCUUGGAGUCUAGCAACUUGCCAAUGUUGCUUACCAACUGGGGGCUUGUUUUUCUUUUCUUCUUUCAAAU; value = 0.148 ratio
Oligonucleotide = CGGAGCCCUCCUCUCCCCCAGGCCCGAGAUGUGACCCACCAGUGCCUUUUGUCUUCCUGUCAGCUCUGUCAAUCACGCCUGUCCUCUCACGCCCACACCAAGUGCCCAAAGUGGGGAGGG; value = 0.7 ratio
Oligonucleotide = GAAACUAUUCCUAAAGAGGAGAGAGCUGAAAAGGAAGCUCGGAGACCAUCUCUUGAGAAACAUAGAAAAGAAAAGCCUUUUAAAACCGGGAGAGGCAGAAUUUCCACUCCUGAAAGAAAA; value = 0.379 ratio

Block 4
Target: Microphthalmia-associated transcription factor, full length (MITF, Homo sapiens, UniProt O75030-10, residues 1-413)
Technique: protein-binding microarray
Molecule type: hairpin DNA
Matrix: in vitro
Tested at: not given
Notes: whole hairpin DNA, median over replicate spots
Relative to: not given
Direction: higher = stronger binding
Quantity: median fluorescence
Oligonucleotide = GAGGCCTAGCACGTGCTGCCTCCTGGCAGCACGTGCTAGGCCTCACACTC (5mC at 16); value = 21700 a.u.
Oligonucleotide = GAGGCCTAGCACGTGCTGCCTCCTGGCAGCACGTGCTAGGCCTCACACTC; value = 22600 a.u.
Oligonucleotide = GAGGCCTAGCACCTGCTGCCTCCTGGCAGCAGGTGCTAGGCCTCACACTC; value = 8060 a.u.
Oligonucleotide = CACTTAGCCCGTGATTTTGGTCCTCCAAAATCACGGGCTAAGTGACACTC; value = 10100 a.u.
Oligonucleotide = CACTTAGCACGTGCGTTTGGTCCTCCAAACGCACGTGCTAAGTGACACTC (5mC at 30); value = 18400 a.u.
Oligonucleotide = CACTCGGCACGTGATTTTGGTCCTCCAAAATCACGTGCCGAGTGACACTC; value = 28600 a.u.
Oligonucleotide = CACTTAGCACGGGATTTTGGTCCTCCAAAATCCCGTGCTAAGTGACACTC; value = 13000 a.u.
Oligonucleotide = CACTTAGCACGTGGTTTTGGTCCTCCAAAACCACGTGCTAAGTGACACTC; value = 20700 a.u.
Oligonucleotide = CACTTCGCACGTGATTTTGGTCCTCCAAAATCACGTGCGAAGTGACACTC (5mC at 38); value = 25400 a.u.
Oligonucleotide = CACTTAGCACGTGACTTTGGTCCTCCAAAGTCACGTGCTAAGTGACACTC; value = 28300 a.u.
Oligonucleotide = GAGGCCTAGCACGTGCCGCCTCCTGGCGGCACGTGCTAGGCCTCACACTC (5mC at 17); value = 24800 a.u.
Oligonucleotide = GAGGCCTAGCACGTGCTGCCTCCTGGCAGCACGTGCTAGGCCTCACACTC (5mC at 12 32); value = 6740 a.u.
Oligonucleotide = CACTTAGCACGTGATTTTGGTCCTCCAAAATCACGTGCTAAGTGACACTC; value = 26500 a.u.
Oligonucleotide = GAGGCCTACGACGTGCTGCCTCCTGGCAGCACGTCGTAGGCCTCACACTC; value = 7070 a.u.
Oligonucleotide = CACTTCGCACGTGATTTTGGTCCTCCAAAATCACGTGCGAAGTGACACTC; value = 26300 a.u.
Oligonucleotide = GAGGCCTGGCACGTGCTGCCTCCTGGCAGCACGTGCCAGGCCTCACACTC (5mC at 37); value = 22200 a.u.
Oligonucleotide = CACTTAGCACCGGATTTTGGTCCTCCAAAATCCGGTGCTAAGTGACACTC (5mC at 11); value = 4570 a.u.

Excerpt of the above (block 1):
Oligonucleotide = ACUAAUUCUCAAAUGGCUCAAGAACAUUAGAAUUUAAGUACCUUUUAGAGUAAUUAUUUUAAGCAAAUAGCCUGGACGUAAGAGAUUCUCAUGCCAGCAUGCUUUCAUUU; value = 2.27
Oligonucleotide = GAGUGUUUACACUGGUUGAUGCUUACACAGCCUGAACUCAGUGCCUCAAACUCCUCUGUGACCAGUUUUGUCUCCAAGCACAUAACUCAUUCUCUCUAAUCUGAUGUCUC; value = 0.362
Oligonucleotide = AUAGCUCUGUAAAACUUGUCCUGUGAGCGAGGCAGGUGCUAUCUGAGAGAGGGAUCUUGCAGCUGUCAUUUCUGGUCUUGUAGCCUUCAUCAGAGGCUGUUUUCCAUGAU; value = 0.518
Oligonucleotide = AAAUUAUGUUCUACUAUGCUCAGGCCCAAAGGCAAUGUGGGGGCCAAAGGGCAACUGGCCUUCUGACCCACUAGAGCCUUGCAAAGAGUUGGCAGUCAGGGGGGUGUCAU; value = 0.33
